Experimental data gathered from unrelated publications.
Each numbered part is a random draw from the data of one study; scales do not carry over between parts.
Sequence of UniProt P06239 (whole entry, looked up): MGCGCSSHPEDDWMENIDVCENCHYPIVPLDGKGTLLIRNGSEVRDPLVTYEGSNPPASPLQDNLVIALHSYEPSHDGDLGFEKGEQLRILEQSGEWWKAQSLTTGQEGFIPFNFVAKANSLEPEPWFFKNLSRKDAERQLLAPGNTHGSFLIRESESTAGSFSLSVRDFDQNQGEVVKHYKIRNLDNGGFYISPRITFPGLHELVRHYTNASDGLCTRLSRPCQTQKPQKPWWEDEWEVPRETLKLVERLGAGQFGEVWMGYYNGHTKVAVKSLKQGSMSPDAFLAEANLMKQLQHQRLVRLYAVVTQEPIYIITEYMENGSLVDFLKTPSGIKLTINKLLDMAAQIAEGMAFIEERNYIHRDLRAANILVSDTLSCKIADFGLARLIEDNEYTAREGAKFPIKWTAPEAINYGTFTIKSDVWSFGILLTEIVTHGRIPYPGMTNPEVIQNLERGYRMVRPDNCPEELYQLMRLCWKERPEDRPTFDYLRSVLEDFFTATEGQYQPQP
Sequence of UniProt Q9HC98 (whole entry, looked up): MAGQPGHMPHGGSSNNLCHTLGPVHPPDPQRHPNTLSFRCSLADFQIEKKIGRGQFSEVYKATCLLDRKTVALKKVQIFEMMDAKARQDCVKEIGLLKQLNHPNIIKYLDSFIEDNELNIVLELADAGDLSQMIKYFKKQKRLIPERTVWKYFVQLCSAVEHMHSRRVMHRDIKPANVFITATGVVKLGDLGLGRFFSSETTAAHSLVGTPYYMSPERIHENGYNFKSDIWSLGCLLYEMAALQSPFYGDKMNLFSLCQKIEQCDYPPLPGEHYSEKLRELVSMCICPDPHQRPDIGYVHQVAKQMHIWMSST
Sequence of UniProt P42685 (whole entry, looked up): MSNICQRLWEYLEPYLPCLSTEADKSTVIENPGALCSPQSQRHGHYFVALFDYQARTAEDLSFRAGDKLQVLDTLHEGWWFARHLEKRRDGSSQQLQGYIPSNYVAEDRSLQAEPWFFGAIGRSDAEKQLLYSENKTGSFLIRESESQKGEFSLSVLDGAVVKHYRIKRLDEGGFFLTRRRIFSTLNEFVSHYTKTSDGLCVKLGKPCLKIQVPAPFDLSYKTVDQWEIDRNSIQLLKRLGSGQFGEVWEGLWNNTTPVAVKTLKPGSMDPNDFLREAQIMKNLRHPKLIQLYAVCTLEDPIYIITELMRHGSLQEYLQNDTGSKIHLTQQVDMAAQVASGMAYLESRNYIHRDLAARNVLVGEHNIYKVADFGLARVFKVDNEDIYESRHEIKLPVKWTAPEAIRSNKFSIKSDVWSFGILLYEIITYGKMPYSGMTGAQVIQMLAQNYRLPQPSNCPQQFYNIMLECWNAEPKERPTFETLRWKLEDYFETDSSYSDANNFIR
Sequence of UniProt O00506 (whole entry, looked up): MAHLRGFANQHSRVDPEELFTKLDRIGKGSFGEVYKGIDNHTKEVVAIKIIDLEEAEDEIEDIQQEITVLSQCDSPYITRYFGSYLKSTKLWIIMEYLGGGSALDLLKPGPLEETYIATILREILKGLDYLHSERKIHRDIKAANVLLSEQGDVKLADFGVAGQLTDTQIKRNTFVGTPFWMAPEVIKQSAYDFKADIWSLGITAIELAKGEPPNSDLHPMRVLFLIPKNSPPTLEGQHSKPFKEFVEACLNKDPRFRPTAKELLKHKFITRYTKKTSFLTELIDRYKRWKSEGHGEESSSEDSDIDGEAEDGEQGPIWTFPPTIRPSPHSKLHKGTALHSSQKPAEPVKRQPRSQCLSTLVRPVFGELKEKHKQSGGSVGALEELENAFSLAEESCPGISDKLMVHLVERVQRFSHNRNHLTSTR
Sequence of UniProt P27361 (whole entry, looked up): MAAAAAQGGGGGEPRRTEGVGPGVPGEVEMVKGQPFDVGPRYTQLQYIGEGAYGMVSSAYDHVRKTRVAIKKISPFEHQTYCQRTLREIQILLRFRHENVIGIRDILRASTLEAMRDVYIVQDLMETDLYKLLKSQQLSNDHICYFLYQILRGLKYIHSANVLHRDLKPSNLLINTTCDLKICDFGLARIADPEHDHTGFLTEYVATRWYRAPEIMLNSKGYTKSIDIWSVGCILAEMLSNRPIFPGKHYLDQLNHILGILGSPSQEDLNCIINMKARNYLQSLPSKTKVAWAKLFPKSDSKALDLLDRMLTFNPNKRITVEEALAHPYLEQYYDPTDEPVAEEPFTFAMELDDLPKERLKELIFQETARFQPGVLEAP
Sequence of UniProt Q15349 (whole entry, looked up): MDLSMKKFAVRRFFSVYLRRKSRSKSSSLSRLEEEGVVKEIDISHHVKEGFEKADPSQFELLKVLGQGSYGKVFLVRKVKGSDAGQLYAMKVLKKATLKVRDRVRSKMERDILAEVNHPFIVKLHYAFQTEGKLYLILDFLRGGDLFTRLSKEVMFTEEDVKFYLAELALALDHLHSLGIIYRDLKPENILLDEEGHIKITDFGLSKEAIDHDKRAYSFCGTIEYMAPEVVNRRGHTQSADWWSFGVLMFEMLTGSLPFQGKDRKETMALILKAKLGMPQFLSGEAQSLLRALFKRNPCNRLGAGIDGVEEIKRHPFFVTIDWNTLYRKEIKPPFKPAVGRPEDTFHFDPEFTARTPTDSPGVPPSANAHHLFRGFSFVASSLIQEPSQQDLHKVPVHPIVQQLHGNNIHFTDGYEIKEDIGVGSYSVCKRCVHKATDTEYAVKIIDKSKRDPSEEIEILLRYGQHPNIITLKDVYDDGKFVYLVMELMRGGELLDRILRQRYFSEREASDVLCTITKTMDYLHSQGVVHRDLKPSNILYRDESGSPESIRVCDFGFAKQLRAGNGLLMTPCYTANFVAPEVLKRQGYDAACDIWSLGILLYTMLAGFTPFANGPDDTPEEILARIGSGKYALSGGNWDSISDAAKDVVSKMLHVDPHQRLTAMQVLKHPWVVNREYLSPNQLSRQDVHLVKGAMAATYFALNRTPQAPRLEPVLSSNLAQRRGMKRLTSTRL
Sequence of UniProt Q9BVS4 (whole entry, looked up): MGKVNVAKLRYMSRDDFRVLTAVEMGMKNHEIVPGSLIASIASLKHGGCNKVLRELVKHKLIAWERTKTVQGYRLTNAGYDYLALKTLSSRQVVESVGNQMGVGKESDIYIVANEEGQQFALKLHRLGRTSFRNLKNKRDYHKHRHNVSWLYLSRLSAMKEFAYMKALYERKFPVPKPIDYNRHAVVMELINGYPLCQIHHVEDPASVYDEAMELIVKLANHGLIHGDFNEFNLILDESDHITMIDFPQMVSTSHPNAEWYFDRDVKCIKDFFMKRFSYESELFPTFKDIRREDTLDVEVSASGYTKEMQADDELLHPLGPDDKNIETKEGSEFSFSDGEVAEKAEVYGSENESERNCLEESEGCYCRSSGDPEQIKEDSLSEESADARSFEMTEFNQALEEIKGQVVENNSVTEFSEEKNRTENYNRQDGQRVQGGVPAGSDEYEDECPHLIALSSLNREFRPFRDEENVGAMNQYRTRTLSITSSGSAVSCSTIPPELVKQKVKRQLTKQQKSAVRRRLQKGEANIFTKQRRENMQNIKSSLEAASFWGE
Sequence of UniProt Q04912 (whole entry, looked up): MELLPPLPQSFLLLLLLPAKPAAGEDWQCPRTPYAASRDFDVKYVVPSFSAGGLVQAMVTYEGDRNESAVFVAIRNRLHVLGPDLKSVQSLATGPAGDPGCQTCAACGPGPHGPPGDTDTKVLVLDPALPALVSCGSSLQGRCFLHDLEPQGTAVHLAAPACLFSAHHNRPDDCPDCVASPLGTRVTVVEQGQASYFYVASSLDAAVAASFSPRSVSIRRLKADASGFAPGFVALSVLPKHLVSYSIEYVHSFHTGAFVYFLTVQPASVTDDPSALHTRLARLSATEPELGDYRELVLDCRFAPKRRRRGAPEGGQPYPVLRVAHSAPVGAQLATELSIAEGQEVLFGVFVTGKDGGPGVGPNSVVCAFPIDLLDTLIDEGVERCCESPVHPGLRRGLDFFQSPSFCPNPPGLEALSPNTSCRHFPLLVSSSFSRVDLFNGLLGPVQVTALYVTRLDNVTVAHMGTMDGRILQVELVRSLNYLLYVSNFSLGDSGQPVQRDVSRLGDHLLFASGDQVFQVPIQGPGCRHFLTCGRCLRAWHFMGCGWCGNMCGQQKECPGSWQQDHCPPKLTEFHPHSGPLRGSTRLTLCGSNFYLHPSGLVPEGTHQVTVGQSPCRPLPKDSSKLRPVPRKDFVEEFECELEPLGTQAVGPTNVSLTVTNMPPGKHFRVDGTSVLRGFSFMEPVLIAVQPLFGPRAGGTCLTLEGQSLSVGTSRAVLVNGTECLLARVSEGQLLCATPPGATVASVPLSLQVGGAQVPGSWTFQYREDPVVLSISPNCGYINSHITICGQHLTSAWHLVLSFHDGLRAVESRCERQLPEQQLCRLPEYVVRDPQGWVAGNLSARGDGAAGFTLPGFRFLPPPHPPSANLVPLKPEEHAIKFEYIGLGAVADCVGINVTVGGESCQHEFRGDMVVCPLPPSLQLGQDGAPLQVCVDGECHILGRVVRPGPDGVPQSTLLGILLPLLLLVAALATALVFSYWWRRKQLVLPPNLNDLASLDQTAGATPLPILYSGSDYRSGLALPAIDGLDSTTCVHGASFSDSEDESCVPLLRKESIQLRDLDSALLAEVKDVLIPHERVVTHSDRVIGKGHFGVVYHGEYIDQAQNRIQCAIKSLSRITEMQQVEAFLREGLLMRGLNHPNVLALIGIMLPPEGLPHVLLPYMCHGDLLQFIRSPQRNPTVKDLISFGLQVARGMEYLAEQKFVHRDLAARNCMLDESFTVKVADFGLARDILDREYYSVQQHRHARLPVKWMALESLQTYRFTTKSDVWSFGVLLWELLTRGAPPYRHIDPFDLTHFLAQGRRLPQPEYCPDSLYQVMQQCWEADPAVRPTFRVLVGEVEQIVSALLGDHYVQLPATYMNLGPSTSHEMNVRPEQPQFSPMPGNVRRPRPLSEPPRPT

Series 1
SMILES: CC(=O)Nc1c(C(C)=O)c(=O)n(C)c2nc(-c3ccc(Cl)cc3Cl)c(-c3ccc(Cl)cc3)cc12
Read-out: cell-free assay
Technique: competition with immobilised ligand
Tested at: 1 µM
Measurement: remaining binding
Serine/threonine-protein kinase RIO2 (RIOK2, Homo sapiens, UniProt Q9BVS4): 100%
Serine/threonine-protein kinase 25 (STK25, Homo sapiens, UniProt O00506): 100%
Tyrosine-protein kinase receptor UFO (AXL, Homo sapiens, UniProt P30530): 100%

Series 2
Target: Myc proto-oncogene protein, bHLH-zipper, MAX partner unstated (MYC, Homo sapiens, UniProt P01106, residues 368-449)
Sequence of UniProt P01106 (368-449, looked up): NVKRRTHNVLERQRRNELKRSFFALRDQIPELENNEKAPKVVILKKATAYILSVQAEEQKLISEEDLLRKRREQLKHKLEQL
Technique: protein-binding microarray
Form: double-stranded DNA, one strand shown
Medium: in vitro
Tested at: not given
Notes: k-mer, scored over probes, only values ≥0.25
Direction: higher = stronger binding
Measurement: E-score
AAGGCACG: 0.314
GTGTCAAA: 0.265
ACGGCACG: 0.326
GGGGCGGA: 0.26
AAGTGTGC: 0.253
GCATGCCA: 0.393
AGCCACAT: 0.283
ATGTGTGG: 0.309

Series 3
Target: Interferon regulatory factor 5, full length, phosphomimetic (IRF5, Homo sapiens, UniProt Q13568-2, residues 1-514, S451D/S453D/S456D/S462D)
Technique: protein-binding microarray
Form: double-stranded DNA, one strand shown
Medium: in vitro
Tested at: 940 nM top
Notes: 60-bp whole probe
Added: salmon DNA 0.4 mg/ml
Baseline: random background probes
Direction: higher = stronger binding
Measurement: fitted relative affinity
Constant ends, left off below: GCCTAGCAC … GTCTTGATTCGCTTGACGCTGCTG
TTCGGACTGCTTTTCCTTTAGTGCTAG: -0.221 z-score
TTAGATATCAGAATCGATTAGTGCTAG: 0.199 z-score
GACGGACTCCTTATCCTGACGTGCTAG: 0.17 z-score
GACGGACTACTTATCCTGACGTGCTAG: -0.38 z-score
TTAGGTATCGGACTGGGCTAGTGCTAG: 3.44 z-score
TCATTTCTACTTCTCTTACTGTGCTAG: 1.97 z-score
GACGGTATCCTTTTCATGACGTGCTAG: 0.696 z-score
TTAGGTTTCGAGACTGGGTTAGTGCTA: 7.12 z-score

Series 4
SMILES: CN(C)c1ccc(C=C2C(=O)Nc3ccccc32)cc1
Read-out: enzyme activity
Mode: inhibitor
Tested at: 0.5 µM
Baseline: control
Measurement: remaining activity
Serine/threonine-protein kinase TAO2 (TAOK2, Homo sapiens, UniProt Q9UL54): 102%
Fibroblast growth factor receptor 1 (FGFR1, Homo sapiens, UniProt P11362): 92%
Ribosomal protein S6 kinase alpha-2 (RPS6KA2, Homo sapiens, UniProt Q15349): 89.1%
Macrophage-stimulating protein receptor (MST1R, Homo sapiens, UniProt Q04912): 106%
Tyrosine-protein kinase FRK (FRK, Homo sapiens, UniProt P42685): 102%
Mitogen-activated protein kinase 3 (MAPK3, Homo sapiens, UniProt P27361): 102%
Serine/threonine-protein kinase Nek6 (NEK6, Homo sapiens, UniProt Q9HC98): 96.9%
Tyrosine-protein kinase Lck (LCK, Homo sapiens, UniProt P06239): 93%

Some of these lines once more (series 4):
Tyrosine-protein kinase FRK (FRK, Homo sapiens, UniProt P42685): 102%
Tyrosine-protein kinase Lck (LCK, Homo sapiens, UniProt P06239): 93%
Ribosomal protein S6 kinase alpha-2 (RPS6KA2, Homo sapiens, UniProt Q15349): 89.1%
Fibroblast growth factor receptor 1 (FGFR1, Homo sapiens, UniProt P11362): 92%
